Assay results gathered from unrelated publications.
Parts stem from different laboratories: compare values within a part only. Values joined by “and” are separate records of one study, mostly repeats; a detail may differ.
UniProt Q16288, sequence (whole entry, looked up): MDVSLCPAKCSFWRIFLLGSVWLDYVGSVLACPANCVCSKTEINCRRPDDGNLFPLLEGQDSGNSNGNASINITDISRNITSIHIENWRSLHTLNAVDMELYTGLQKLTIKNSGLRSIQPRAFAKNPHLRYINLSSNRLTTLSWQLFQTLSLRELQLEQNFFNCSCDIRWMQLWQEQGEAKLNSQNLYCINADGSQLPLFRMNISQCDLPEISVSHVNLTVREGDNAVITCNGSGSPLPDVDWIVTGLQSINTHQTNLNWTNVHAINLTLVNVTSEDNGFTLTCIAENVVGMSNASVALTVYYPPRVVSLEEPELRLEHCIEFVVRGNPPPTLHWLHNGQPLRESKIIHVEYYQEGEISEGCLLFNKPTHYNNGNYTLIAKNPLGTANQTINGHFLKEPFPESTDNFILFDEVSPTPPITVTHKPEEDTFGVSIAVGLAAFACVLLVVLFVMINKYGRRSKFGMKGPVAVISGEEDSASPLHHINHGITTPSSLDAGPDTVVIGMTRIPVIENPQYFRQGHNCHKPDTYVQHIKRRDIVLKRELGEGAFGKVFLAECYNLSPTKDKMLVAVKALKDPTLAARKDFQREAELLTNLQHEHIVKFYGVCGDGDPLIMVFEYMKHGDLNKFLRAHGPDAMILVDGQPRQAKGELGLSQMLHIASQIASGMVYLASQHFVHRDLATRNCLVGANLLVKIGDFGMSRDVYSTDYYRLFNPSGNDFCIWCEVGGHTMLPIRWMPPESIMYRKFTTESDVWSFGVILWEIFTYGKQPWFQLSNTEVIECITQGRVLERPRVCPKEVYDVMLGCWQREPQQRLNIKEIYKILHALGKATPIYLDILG
UniProt Q9BUB5, sequence (whole entry, looked up): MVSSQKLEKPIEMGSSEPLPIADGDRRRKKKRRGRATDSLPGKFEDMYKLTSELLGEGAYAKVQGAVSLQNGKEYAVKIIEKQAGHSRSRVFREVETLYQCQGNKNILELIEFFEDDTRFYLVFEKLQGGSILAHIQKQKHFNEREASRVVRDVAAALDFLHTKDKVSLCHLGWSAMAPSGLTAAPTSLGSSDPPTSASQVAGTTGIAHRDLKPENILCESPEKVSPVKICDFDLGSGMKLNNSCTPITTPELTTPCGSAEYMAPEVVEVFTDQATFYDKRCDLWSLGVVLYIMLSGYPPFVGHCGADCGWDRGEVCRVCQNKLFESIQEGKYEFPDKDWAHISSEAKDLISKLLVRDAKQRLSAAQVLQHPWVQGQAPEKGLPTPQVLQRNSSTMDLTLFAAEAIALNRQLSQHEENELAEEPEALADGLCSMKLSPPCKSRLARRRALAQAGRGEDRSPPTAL
UniProt Q9H1R3, sequence (whole entry, looked up): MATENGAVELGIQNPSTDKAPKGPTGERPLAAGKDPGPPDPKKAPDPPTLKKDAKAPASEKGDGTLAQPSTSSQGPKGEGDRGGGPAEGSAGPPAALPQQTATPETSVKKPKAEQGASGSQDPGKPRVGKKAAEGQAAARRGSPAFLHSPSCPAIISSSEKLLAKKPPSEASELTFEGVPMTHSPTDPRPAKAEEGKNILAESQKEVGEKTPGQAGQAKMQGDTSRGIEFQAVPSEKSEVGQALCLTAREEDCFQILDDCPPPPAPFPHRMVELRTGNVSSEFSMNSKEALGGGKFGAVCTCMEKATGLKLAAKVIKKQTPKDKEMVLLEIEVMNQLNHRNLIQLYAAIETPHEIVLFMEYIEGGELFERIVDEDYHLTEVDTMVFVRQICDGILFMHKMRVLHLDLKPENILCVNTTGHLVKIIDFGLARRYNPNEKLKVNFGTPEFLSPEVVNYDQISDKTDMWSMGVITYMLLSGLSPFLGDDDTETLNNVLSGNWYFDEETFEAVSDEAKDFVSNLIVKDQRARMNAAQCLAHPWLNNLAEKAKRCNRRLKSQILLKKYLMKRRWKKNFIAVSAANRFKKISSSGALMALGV
UniProt Q96KB5, sequence (whole entry, looked up): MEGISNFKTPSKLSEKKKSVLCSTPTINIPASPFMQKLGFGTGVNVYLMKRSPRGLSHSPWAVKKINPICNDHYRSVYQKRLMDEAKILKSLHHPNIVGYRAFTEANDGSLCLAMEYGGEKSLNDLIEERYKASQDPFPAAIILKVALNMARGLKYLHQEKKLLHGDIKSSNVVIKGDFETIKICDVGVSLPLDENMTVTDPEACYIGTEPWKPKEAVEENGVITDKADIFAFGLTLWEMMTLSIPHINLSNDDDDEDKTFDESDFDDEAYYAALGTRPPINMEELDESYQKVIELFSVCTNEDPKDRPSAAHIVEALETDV

Study 1 — effect on: enzyme activity; mode: inhibitor; concentration: 77 µM; baseline: untreated
Target: DNA polymerase theta, ATPase domain (POLQ, Homo sapiens, UniProt O75417)
UniProt O75417, sequence (whole entry, unmodified, looked up): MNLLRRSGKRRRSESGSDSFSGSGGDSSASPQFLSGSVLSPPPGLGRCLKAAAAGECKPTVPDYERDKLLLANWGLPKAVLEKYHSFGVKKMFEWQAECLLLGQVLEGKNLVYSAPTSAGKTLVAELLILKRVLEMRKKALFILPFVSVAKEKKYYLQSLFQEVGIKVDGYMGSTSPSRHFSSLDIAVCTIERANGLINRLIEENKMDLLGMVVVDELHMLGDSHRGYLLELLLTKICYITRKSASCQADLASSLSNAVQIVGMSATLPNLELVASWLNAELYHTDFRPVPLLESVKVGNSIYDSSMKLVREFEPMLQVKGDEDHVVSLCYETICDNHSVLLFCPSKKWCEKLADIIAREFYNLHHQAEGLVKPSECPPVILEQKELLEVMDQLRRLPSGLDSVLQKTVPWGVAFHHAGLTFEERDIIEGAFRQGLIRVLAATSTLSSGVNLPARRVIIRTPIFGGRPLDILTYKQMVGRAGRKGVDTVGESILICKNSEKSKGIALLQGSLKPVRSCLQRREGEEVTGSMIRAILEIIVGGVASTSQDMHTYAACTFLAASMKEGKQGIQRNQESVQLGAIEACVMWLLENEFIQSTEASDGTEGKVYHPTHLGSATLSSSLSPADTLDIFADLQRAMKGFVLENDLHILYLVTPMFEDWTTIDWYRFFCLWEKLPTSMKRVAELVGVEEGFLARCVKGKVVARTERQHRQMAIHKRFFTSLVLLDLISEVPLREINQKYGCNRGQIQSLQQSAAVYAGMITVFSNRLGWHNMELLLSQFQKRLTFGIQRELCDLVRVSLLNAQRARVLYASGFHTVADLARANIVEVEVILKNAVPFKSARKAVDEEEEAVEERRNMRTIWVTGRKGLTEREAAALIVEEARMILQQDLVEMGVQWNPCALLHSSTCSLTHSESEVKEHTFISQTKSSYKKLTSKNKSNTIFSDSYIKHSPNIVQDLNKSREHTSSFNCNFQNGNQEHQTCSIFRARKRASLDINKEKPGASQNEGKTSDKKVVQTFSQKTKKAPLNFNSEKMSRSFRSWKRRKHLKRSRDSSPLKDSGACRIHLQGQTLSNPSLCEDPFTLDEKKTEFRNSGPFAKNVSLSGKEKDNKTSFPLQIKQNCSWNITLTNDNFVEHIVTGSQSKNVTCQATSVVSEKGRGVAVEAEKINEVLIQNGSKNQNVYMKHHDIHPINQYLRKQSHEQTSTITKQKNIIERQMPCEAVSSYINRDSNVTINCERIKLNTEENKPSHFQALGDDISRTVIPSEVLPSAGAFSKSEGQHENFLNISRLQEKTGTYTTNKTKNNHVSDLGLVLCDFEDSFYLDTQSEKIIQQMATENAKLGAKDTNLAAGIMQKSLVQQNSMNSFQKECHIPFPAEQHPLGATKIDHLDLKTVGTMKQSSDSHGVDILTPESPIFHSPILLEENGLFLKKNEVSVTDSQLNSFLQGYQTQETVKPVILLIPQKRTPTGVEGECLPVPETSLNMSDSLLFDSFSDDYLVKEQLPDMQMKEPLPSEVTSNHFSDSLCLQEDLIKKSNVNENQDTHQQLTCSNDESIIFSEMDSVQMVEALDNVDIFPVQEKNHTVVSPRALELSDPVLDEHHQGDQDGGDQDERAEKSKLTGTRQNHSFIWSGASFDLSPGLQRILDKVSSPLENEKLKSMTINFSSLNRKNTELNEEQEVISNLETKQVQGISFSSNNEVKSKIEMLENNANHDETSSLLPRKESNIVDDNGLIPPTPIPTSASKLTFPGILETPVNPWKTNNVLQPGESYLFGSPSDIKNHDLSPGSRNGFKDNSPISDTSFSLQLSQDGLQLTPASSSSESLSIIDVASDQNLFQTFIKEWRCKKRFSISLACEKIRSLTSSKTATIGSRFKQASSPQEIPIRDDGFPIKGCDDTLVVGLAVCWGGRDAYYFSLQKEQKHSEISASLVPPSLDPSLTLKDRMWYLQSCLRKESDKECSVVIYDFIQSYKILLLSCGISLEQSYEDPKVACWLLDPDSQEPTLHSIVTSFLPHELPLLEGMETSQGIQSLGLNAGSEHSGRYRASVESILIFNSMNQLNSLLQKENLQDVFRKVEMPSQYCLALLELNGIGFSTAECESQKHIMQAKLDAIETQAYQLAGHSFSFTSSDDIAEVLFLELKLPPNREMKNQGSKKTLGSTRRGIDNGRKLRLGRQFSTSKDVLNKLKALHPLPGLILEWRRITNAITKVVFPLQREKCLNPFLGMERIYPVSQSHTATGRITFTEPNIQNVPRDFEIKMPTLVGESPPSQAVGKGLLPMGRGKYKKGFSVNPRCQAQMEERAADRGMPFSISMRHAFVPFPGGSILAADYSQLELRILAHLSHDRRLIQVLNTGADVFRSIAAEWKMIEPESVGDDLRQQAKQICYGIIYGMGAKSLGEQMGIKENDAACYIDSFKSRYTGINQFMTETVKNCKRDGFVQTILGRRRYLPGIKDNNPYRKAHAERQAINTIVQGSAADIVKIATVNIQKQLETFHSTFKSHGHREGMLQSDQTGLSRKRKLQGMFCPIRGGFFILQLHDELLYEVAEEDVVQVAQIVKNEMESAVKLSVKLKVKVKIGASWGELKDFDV
SMILES | remaining activity
COc1cc(CCC(C)=O)ccc1O | 101%
O=C1Nc2ccc(Br)cc2/C1=C/c1cc2c([nH]1)CCCC2 | 93.6%
Nc1ncnc2c1ncn2[C@@H]1O[C@H](CO)[C@@H](O)[C@@H]1O | 103% and 86.3%
C[C@H](CCC(=O)O)[C@H]1CC[C@H]2[C@@H]3[C@@H](O)C[C@@H]4C[C@H](O)CC[C@]4(C)[C@H]3CC[C@]12C | 88%
COC(=O)Nc1nc2cc(C(=O)c3ccccc3)ccc2[nH]1 | 102%

Study 2 — cell line: Huh-7; concentration: 10 µM; time: 24 h
SMILES | viability [%]
COc1ccc2cc(CCC(C)=O)ccc2c1 | 101
CO/N=C(\C(=O)N[C@@H]1C(=O)N2C(C(=O)O)=C(CSc3nc(=O)c(=O)[nH]n3C)CS[C@H]12)c1csc(N)n1 | 101
Cc1cc(C(C)(C)C)c(O)c(C)c1CC1=NCCN1 | 98.1
CC(C)NCC(O)c1ccc(O)c(O)c1 (centres unmarked) | 101
CC(=O)NO | 100
Cc1onc(-c2ccccc2)c1-c1ccc(S(N)(=O)=O)cc1 | 94
Oc1ccc(Cl)c2cccnc12 | 68.4
C=CC[C@@H]1/C=C(\C)C[C@H](C)C[C@H](OC)[C@H]2O[C@@](O)(C(=O)C(=O)N3CCCC[C@H]3C(=O)O[C@H](/C(C)=C/[C@@H]3CC[C@@H](O)[C@H](OC)C3)[C@H](C)[C@@H](O)CC1=O)[C@H](C)C[C@@H]2OC | 97.6
C#C[C@]1(OC(C)=O)CC[C@H]2[C@@H]3CCC4=C[C@@H](OC(C)=O)CC[C@@H]4[C@H]3CC[C@@]21C | 97.4
CC(=O)OCC(=O)[C@@]1(O)CC[C@H]2[C@@H]3CCC4=CC(=O)C=C[C@]4(C)[C@@]3(F)[C@@H](O)C[C@@]21C | 98.9
CC(C)NCC(O)c1cc(O)cc(O)c1 (centres unmarked) | 97.2

Study 3 — effect on: AlphaScreen signal; technique: AlphaScreen counter screen; matrix: His6 peptide without bromodomain; concentration: 50 µM; notes: assay interference check
SMILES | inhibition [%]
O=C1Nc2ccc3ncsc3c2C1=CNc1ccc(S(=O)(=O)Nc2ccccn2)cc1 | 17.9
Brc1ccc(-c2nc(-c3c[nH]c4ccccc34)[nH]c2-c2ccccc2)cc1 | 81.2
COc1cc(OC)c(C=C2C(=O)Nc3ccccc32)c(OC)c1 | 55.8
Br.Br.CCOc1ccc(Nc2nc(-c3c(C)nc4ccccn34)cs2)cc1 | 85.2
CCOc1cc2ncc(C#N)c(Nc3ccc(OCc4ccccn4)c(Cl)c3)c2cc1NC(=O)/C=C/CN(C)C | 41.4
COc1ccccc1NC(=O)N=c1[nH]nc(C=Cc2ccccc2)s1 | 14.2
Nc1nc(Nc2ccc(F)cc2)sc1C(=O)c1ccccc1 | 19.4
Nc1cccc(-c2cc3c(Oc4cccc(O)c4)ncnc3[nH]2)c1 | 12.5

Study 4 — effect on: cell-free assay; technique: competition with immobilised ligand; concentration: 1 µM
Compound: COc1cccc(CNC(=O)c2nc3scc(COCc4ccc(C(=O)O)cc4)c3c(=O)[nH]2)c1
target | remaining binding
PIP4K2C (Homo sapiens, UniProt Q8TBX8) | 74.7%
EIF2AK1 (Homo sapiens, UniProt Q9BQI3) | 88%
CAMK1D (Homo sapiens, UniProt Q8IU85) | 100%
Tyrosine-protein kinase ABL1, phosphorylated (ABL1, Homo sapiens, UniProt P00519, H396P) | 83.6%
DYRK2 (Homo sapiens, UniProt Q92630) | 100%
CAMK2G (Homo sapiens, UniProt Q13555) | 100%
TRPM6 (Homo sapiens, UniProt Q9BX84) | 81.8%
PIK3C2G (Homo sapiens, UniProt O75747) | 100%
TESK1 (Homo sapiens, UniProt Q15569) | 82.8%
Ribosomal protein S6 kinase alpha-6, N-terminal kinase domain (RPS6KA6, Homo sapiens, UniProt Q9UK32) | 63.5%
COQ8A (Homo sapiens, UniProt Q8NI60) | 100%
FGR (Homo sapiens, UniProt P09769) | 90%
TLK2 (Homo sapiens, UniProt Q86UE8) | 100%
Mast/stem cell growth factor receptor Kit, autoinhibited (KIT, Homo sapiens, UniProt P10721) | 81.3%
MARK1 (Homo sapiens, UniProt Q9P0L2) | 96.7%
MAPK8 (Homo sapiens, UniProt P45983) | 100%
STK17A (Homo sapiens, UniProt Q9UEE5) | 73.1%
CSNK1G3 (Homo sapiens, UniProt Q9Y6M4) | 96.6%
MYLK3 (Homo sapiens, UniProt Q32MK0) | 72.8%
IKBKB (Homo sapiens, UniProt O14920) | 73.2%
PRKAA1 (Homo sapiens, UniProt Q13131) | 70.3%
FGFR3 (Homo sapiens, UniProt P22607) | 100%
PIK3CA (Homo sapiens, UniProt P42336, M1043I) | 100%
NTRK3 (Homo sapiens, UniProt Q16288) | 76.3%
FLT3 (Homo sapiens, UniProt P36888, F691L/ITD) | 63%

Study 5 — effect on: enzyme activity; mode: inhibitor; concentration: 0.5 µM; baseline: control
Structure (SMILES): FC(F)(F)c1ccc(/C=C/c2nc(COc3ccc(CCCCn4ccnn4)cc3)co2)cc1
target | remaining activity [%]
CSNK1G1 (Homo sapiens, UniProt Q9HCP0) | 100
MKNK1 (Homo sapiens, UniProt Q9BUB5) | 89.5
MYLK2 (Homo sapiens, UniProt Q9H1R3) | 101
PBK (Homo sapiens, UniProt Q96KB5) | 99.9

Excerpt of the above (study 4):
target | remaining binding
IKBKB (Homo sapiens, UniProt O14920) | 73.2%
PIK3CA (Homo sapiens, UniProt P42336, M1043I) | 100%
PIK3C2G (Homo sapiens, UniProt O75747) | 100%
CSNK1G3 (Homo sapiens, UniProt Q9Y6M4) | 96.6%
FLT3 (Homo sapiens, UniProt P36888, F691L/ITD) | 63%
STK17A (Homo sapiens, UniProt Q9UEE5) | 73.1%
Mast/stem cell growth factor receptor Kit, autoinhibited (KIT, Homo sapiens, UniProt P10721) | 81.3%
FGR (Homo sapiens, UniProt P09769) | 90%
Tyrosine-protein kinase ABL1, phosphorylated (ABL1, Homo sapiens, UniProt P00519, H396P) | 83.6%
